Measured values pooled from the literature.
Lines come from different studies, so protocols differ. “And” joins repeats or separate records; there may be more than shown. ± gives the spread as reported.
TARDBP aggregated: TAR DNA-binding protein 43, aggregated (TARDBP, Homo sapiens, UniProt Q13148)
UniProt Q13148, sequence (whole entry, looked up): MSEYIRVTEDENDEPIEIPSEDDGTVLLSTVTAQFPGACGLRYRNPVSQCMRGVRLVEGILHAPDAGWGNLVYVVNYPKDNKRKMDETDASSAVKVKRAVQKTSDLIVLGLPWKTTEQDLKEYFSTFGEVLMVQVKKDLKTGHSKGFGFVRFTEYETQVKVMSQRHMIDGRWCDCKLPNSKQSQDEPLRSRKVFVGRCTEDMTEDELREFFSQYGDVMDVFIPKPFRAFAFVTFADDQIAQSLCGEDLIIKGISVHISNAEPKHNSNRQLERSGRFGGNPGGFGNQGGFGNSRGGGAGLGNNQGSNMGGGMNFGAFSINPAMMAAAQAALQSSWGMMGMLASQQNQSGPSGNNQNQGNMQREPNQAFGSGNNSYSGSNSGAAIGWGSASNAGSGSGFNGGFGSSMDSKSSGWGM
Gria1: Glutamate receptor 1 (Gria1, Rattus norvegicus, UniProt P19490)
UniProt P19490, sequence (whole entry, looked up): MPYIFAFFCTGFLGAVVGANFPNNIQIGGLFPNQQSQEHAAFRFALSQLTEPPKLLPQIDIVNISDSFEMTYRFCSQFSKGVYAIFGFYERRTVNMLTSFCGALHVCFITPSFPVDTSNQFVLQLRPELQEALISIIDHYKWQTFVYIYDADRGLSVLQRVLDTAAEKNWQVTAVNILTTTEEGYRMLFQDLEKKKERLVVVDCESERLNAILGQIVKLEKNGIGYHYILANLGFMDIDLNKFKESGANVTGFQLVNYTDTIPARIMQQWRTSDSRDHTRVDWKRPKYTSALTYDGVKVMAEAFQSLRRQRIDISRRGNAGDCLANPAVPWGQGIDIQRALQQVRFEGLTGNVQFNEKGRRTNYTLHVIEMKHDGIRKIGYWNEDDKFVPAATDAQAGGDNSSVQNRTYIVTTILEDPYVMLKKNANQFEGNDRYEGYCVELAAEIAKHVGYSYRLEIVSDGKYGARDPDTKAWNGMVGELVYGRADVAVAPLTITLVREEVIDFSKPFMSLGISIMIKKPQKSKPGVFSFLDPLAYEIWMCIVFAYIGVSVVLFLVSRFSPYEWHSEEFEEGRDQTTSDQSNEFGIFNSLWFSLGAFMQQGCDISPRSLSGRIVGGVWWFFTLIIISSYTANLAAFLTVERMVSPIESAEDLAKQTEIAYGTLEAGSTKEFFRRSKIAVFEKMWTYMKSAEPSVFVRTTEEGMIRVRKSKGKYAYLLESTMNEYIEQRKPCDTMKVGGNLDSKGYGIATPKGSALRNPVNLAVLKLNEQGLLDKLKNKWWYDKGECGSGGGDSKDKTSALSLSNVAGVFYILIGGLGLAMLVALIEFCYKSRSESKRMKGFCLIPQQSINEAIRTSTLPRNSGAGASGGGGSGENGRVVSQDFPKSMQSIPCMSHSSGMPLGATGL
CASP6: Caspase-6 (CASP6, Homo sapiens, UniProt P55212)
UniProt P55212, sequence (whole entry, looked up): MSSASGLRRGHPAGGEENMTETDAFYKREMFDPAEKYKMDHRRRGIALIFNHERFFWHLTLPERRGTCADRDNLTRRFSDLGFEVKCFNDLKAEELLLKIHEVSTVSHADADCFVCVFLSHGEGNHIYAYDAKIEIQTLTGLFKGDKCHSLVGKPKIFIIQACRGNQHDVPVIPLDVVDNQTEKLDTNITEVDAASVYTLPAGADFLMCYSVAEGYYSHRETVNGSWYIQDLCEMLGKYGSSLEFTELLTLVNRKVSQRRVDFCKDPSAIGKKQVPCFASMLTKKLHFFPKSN
TDP1: Tyrosyl-DNA phosphodiesterase 1 (TDP1, Homo sapiens, UniProt Q9NUW8)
UniProt Q9NUW8, sequence (whole entry, looked up): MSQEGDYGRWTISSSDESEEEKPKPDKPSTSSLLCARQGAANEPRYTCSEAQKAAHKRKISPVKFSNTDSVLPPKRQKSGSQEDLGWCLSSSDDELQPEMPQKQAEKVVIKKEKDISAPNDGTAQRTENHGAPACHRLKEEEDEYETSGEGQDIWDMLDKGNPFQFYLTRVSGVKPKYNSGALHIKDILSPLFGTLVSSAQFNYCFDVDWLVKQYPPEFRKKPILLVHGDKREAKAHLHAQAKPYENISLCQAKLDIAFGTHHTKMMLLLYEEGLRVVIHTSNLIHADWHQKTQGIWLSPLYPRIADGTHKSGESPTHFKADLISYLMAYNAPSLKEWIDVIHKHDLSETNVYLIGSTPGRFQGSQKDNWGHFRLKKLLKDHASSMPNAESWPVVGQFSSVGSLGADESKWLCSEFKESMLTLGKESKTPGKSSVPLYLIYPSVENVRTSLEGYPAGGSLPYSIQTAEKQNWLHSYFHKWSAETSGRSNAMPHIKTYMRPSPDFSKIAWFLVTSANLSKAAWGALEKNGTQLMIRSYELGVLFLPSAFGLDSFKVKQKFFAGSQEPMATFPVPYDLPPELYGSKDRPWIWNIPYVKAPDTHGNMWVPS
OPRK1: Kappa-type opioid receptor (OPRK1, Homo sapiens, UniProt P41145)
UniProt P41145, sequence (whole entry, looked up): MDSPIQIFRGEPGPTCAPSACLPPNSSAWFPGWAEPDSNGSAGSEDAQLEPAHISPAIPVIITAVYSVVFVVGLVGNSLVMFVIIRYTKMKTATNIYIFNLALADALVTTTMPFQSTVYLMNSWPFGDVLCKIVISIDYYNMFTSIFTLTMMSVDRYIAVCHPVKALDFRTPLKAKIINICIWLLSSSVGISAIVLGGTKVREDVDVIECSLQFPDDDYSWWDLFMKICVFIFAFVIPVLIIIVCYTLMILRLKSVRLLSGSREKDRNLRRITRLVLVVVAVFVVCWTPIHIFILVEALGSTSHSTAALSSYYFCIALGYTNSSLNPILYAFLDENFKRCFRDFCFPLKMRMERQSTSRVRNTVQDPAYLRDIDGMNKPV
glpG: Rhomboid protease GlpG (glpG, Escherichia coli, UniProt P09391)
UniProt P09391, sequence (whole entry, looked up): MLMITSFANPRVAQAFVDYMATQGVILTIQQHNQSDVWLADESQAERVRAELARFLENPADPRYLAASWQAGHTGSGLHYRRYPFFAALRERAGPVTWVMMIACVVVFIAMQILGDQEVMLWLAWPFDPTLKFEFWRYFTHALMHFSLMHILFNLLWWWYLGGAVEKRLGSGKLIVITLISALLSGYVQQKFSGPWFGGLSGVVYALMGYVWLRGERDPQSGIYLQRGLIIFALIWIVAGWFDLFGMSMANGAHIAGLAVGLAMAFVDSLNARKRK
Uncharacterized protein: Uncharacterized protein (Trypanosoma brucei brucei, UniProt Q386Q8)
UniProt P28482, sequence (whole entry, looked up): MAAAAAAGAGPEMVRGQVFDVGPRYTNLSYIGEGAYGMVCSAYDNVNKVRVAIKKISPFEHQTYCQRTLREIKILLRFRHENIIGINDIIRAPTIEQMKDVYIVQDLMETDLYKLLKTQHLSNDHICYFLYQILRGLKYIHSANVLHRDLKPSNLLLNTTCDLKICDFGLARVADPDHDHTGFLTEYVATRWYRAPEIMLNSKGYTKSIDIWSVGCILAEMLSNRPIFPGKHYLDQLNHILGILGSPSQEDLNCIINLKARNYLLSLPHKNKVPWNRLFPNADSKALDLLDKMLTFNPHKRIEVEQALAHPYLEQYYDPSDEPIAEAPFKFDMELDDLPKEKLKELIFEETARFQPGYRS
UniProt P27338, sequence (whole entry, looked up): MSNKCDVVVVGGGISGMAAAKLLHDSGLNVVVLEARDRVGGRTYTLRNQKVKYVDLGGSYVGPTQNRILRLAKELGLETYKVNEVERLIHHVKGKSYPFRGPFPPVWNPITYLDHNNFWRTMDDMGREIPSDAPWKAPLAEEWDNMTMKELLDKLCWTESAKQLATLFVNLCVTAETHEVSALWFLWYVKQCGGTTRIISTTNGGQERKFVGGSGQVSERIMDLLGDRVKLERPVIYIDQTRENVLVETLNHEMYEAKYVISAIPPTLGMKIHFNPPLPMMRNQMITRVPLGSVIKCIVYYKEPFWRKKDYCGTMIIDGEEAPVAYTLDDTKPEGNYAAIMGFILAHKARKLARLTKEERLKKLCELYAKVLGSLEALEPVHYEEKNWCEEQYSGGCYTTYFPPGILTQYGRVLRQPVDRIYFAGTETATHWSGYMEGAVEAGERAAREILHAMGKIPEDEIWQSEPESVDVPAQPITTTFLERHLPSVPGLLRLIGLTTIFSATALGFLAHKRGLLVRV
UniProt P51948, sequence (whole entry, looked up): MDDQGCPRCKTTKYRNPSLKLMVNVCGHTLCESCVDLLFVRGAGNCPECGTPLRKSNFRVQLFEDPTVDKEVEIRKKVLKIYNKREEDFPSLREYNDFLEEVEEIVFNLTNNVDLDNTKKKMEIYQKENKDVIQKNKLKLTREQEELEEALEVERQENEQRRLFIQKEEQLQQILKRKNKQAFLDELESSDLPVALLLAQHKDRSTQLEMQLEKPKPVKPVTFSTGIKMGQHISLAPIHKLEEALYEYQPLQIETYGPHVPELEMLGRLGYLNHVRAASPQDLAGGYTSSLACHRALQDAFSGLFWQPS
UniProt P45983, sequence (whole entry, looked up): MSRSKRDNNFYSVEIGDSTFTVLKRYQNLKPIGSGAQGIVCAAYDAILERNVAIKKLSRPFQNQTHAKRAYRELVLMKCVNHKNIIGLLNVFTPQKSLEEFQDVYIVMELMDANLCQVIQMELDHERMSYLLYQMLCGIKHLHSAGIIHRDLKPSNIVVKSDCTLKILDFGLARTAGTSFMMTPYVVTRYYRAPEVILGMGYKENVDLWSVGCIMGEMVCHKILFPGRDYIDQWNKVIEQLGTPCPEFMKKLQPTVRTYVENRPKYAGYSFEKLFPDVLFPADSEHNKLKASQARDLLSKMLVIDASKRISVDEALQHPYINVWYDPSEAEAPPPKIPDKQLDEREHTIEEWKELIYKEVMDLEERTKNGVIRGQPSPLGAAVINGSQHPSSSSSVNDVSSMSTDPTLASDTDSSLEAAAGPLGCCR
UniProt P52597, sequence (whole entry, looked up): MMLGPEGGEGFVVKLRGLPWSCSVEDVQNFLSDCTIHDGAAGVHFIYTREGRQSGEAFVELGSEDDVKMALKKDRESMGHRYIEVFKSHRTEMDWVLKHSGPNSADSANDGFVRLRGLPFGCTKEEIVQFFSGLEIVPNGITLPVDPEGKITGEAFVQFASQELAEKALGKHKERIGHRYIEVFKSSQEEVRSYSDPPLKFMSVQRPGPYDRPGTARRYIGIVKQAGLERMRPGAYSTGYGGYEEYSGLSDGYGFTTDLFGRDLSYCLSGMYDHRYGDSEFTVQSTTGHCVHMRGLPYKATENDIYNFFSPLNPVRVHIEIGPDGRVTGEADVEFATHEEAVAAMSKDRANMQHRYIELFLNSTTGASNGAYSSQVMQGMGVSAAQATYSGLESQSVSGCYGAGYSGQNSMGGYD

| SMILES | tested on | assay | test system | conditions | how to read | measurement | value |
| --- | --- | --- | --- | --- | --- | --- | --- |
| O=C1c2sc(-c3ccc(N4CCC(F)C4)nc3F)nc2CCN1c1cccnc1 (centres unmarked) | TARDBP aggregated | radioligand binding | human, FTLD-TDP type B extract | added: radioligand 9.68 nM | – | specific binding | 1.61 nM and 1.72 nM |
| COC(=O)Cc1cc2c(cc1C(=O)c1ccccc1Br)OCO2 | Gria1 | glutamate-evoked current, whole-cell patch clamp | HEK-293T | concentration not given, glutamate alone after washout, added: glutamate | – | current amplitude after recovery | 886 ± 42 pA |
| CC(=O)N[C@H](C(=O)N[C@@H](CCCCN)C(=O)N[C@@H](CCC(N)=O)C(=O)N[C@@H](CC(=O)O)C(=O)COC(=O)c1c(C)cccc1C)C(C)C | CASP6 | enzyme activity, inhibitor | – | – | – | kinact/KI | 2000 M⁻¹ s⁻¹ |
| COc1nc2c(C)cccn2c(=O)c1C=NOCc1ccc(-c2nc3cc(-c4ccccc4)ccn3c2Nc2ccc(C(=O)O)cc2)cc1 (mixture of isomers) | TDP1 | enzyme activity, inhibitor | – | 100 µM, unpurified compound | – | inhibition | 96.1% |
| COC(=O)[C@@]1(C)C=C(C(=O)Nc2cccc(C(=O)Nc3ccc(Nc4nccc(-c5cccnc5)n4)c(C)c3)c2)C(=O)CC1 | Mitogen-activated protein kinase 8 (MAPK8, Homo sapiens, UniProt P45983) | enzyme activity, inhibitor | – | 0.02032 µM, 0 h, unit not given, added: GSH 10 mM pre-incubation | relative to: vehicle | remaining activity | 0.575 |
| O=C(O)Cc1cc2c(cc1C(=O)c1ccccc1)OCO2 | Gria1 | glutamate-evoked current, whole-cell patch clamp | HEK-293T | concentration not given, weighted tau, 500 ms pulse, added: glutamate | – | desensitization time constant | 2.2 ± 0.1 ms |
| CC(=O)N(c1ccccc1)c1nc(C=NOCc2ccc(-c3nc4cc(-c5ccccc5)ccn4c3Nc3ccc(C(=O)O)cc3)cc2)cs1 | TDP1 | enzyme activity, inhibitor | – | 100 µM, unpurified compound | – | inhibition | 99.9% |
| O=C1c2sc(-c3ccc(N4CCC(CO)CC4)nc3F)nc2CCN1c1cccnc1 | TARDBP aggregated | radioligand binding | human, FTLD-TDP type B extract | added: radioligand 142.86 nM | – | specific binding | 13.2 nM and 10.6 nM |
| C#CCOC(=O)[C@]1(C)C=C(C(=O)OC(C)(C)C)C(=O)CC1 | Mitogen-activated protein kinase 1 (MAPK1, Homo sapiens, UniProt P28482) | enzyme activity, D-SENSOR | – | 0.1829 µM, single replicate | – | normalized kinase activity | 0.792 and 0.9 and 0.994 |
| NC1=NCCc2ccccc21 | Nicotinamide N-methyltransferase, SAM-bound (NNMT, Homo sapiens, UniProt P40261) | differential scanning fluorimetry | – | 1 mM, added: 100 µM SAM | – | ΔTm | 1.4 °C |
| CCCCCC(O)/C=C/C=O (centres unmarked) | Perilipin-3 (PLIN3, Homo sapiens, UniProt O60664) | competitive isoTOP-ABPP | proteome, soluble, MDA-MB-231 | 100 µM, 60 min, added: iodoacetamide probe | relative to: DMSO over compound-treated, higher = stronger cysteine blockade | isoTOP-ABPP competition ratio | 2.6 |
| COC(=O)Cc1cc2c(cc1C(=O)c1ccccc1Cl)OCO2 | Gria1 | glutamate-evoked current, whole-cell patch clamp | HEK-293T | concentration not given, glutamate alone after washout, added: glutamate | – | current amplitude after recovery | 862 ± 38 pA |
| Nc1nnc(-c2ccccc2O)cc1N1CCNCC1 | Protein polybromo-1, BD5 (PBRM1, Homo sapiens, UniProt Q86U86) | ternary complex binding, TR-FRET competition | – | added: VCB complex | – | cooperativity factor alpha | 1 |
| CC(=O)[C@]12NC(C)(C)C[C@@]1(C)C(=O)C1=C2c2c(c3c4n2C(C)(C)CC2=C4[C@@]4(CC(C)(C)N[C@@](C)(C4)C2=O)CC3(C)C)C(=O)C(C)(C)N1 (racemic) | OPRK1 | cAMP level, agonist, LANCE Ultra cAMP | CHO | 10 µM | – | activation | 4.54% |
| CCCCCC=NOCc1ccc2nc(-c3ccccc3)c(Nc3ccc(C(=O)O)cc3)n2c1 | TDP1 | enzyme activity, inhibitor | – | 100 µM, unpurified compound | – | inhibition | -16.8% |
| CN(Cc1cc(C2CC2)on1)C(=O)c1cccc(-c2ccc3c(c2)CCO3)c1 | ACS1 (Saccharomyces cerevisiae, UniProt Q01574) | enzyme activity, inhibitor, coupled pyrophosphate | – | 200 nM | higher is more activity | reaction rate | 0.0199 a.u. |
| COC(=O)Cc1cc2c(cc1C(=O)c1cccc(I)c1)OCO2 | Gria1 | glutamate-evoked current, whole-cell patch clamp | HEK-293T | concentration not given, glutamate alone after washout, added: glutamate | – | current amplitude after recovery | 877 ± 39 pA |
| Cc1ncsc1-c1ccc(C(C)NC(=O)C2CC(O)CN2C(=O)C(NC(=O)CCCCCCCCCCN2CCCC(Nc3ncc(Cl)c(Nc4ccccc4S(=O)(=O)C(C)C)n3)C2)C(C)(C)C)cc1 (centres unmarked) | 22Rv1 | RNA-seq, refers to: RNF41 mRNA | – | concentration not given | relative to: DMSO | log2 fold change | -1.36 |
| N#Cc1ccc(S(=O)(=O)N2C(=O)CC2c2ccccc2)cc1 (centres unmarked) | glpG | enzyme activity, inhibitor, gel-based chimeric protein substrate | – | – | – | IC50 | inactive |
| CC(C)c1ccc(/C=C/C(=O)c2ccc(Br)s2)cc1 | Amine oxidase [flavin-containing] B (MAOB, Homo sapiens, UniProt P27338) | enzyme activity, inhibitor | – | 1 µM | – | activity vs control | 2.31% |
| Cc1n[nH]c(C)c1C(=O)CC1(O)C(=O)Nc2cc(Cl)cc(Cl)c21 (centres unmarked) | Uncharacterized protein | inhibitor, coupled colorimetric | Trypanosoma brucei | – | – | Hill slope | -15.8 |
| COc1ccc(-c2ccc(C=NOCc3ccc(-c4nc5cc(-c6ccccc6)ccn5c4Nc4ccc(C(=O)O)cc4)cc3)s2)cc1 (mixture of isomers) | TDP1 | enzyme activity, inhibitor | – | 100 µM, unpurified compound | – | inhibition | 26.5% |

| SMILES | tested on | assay | test system | conditions | how to read | measurement | value |
| --- | --- | --- | --- | --- | --- | --- | --- |
| OCC(O)CO | Lysozyme C (LYZ, Gallus gallus, UniProt P00698) | binding, static light scattering | – | pH 7, 25 °C, added: NaCl 50 mM | – | association constant | 0.97 M⁻¹ |
| NC(=O)c1cccc(CN(Cc2ccc(Cl)c(Cl)c2)C(=O)NC(CN2CCCCC2)c2ccccc2)c1 (centres unmarked) | OPRK1 | Gi signalling | – | – | – | bias factor | 6.61 |
| CCCCOc1ccc(C(=O)OCCN2CC=CCC2)cc1 | Muscarinic acetylcholine receptor M5 (CHRM5, Homo sapiens, UniProt P08912) | – | membranes | 10 µM, 15 h, no carbachol | relative to: control | basal binding | 1.14 ± 0.04 fold |
| CCCCCCCCCCCCC/C=C/C=O | Treacle protein (Homo sapiens, UniProt Q13428) | competitive isoTOP-ABPP, refers to: TCOF1 cysteine peptide | Ramos soluble proteome | 100 µM, added: iodoacetamide probe | relative to: DMSO over compound-treated, higher = stronger cysteine blockade | isoTOP-ABPP competition ratio | 1 |
| CC(=O)N1[C@H](C(=O)N[C@@H](CC(C)C)C(=O)N[C@@H](C)C(=O)N[C@@H](CC(=O)O)C(=O)COC(=O)c2c(C)cccc2C)C[C@@H]2CCCC[C@@H]21 | CASP6 | enzyme activity, inhibitor | – | – | – | kinact/KI | 500 M⁻¹ s⁻¹ |
| Cn1cc(-c2cc(N3CCCCS3(=O)=O)ccc2N[C@H]2CC[C@H](C)CC2)c2cc[nH]c2c1=O (stereo in doubt) | Protein polybromo-1, bromodomain 2 (PBRM1, Homo sapiens, UniProt Q86U86) | bromodomain binding screen | – | 1 µM | lower is stronger binding | remaining binding | 97% |
| O=C(O)c1ccc(Nc2c(-c3ccccc3)nc3ccc(CON=Cc4cc(-c5ccc(F)cc5)on4)cn23)cc1 | TDP1 | enzyme activity, inhibitor | – | 100 µM, unpurified compound | – | inhibition | -5.3% |
| CC(=O)N[C@H](C(=O)N[C@@H](CCC(=O)O)C(=O)N[C@@H](CCCCN(C)C)C(=O)N[C@@H](CC(=O)O)C(=O)COC(=O)c1c(C)cccc1C)C(C)C | CASP6 | enzyme activity, inhibitor | – | – | – | kinact/KI | 66900 M⁻¹ s⁻¹ |
| CCCCCCCCCCCCCCCC(=O)OCC(CSC[C@H](N)C(=O)N[C@@H](CO)C(=O)N[C@@H](CCCCN)C(=O)N[C@@H](CCCCN)C(=O)N[C@@H](CCCCN)C(=O)N[C@@H](CCCCN)C(=O)NCCCCCC(=O)N[C@@H](CCCCN)C(=O)N[C@@H](CC(C)C)C(=O)N[C@H](C(=O)N[C@@H](Cc1ccccc1)C(=O)N[C@@H](Cc1ccccc1)C(=O)N[C@@H](Cc1ccc2ccccc2c1)C(=O)O)C(C)C)OC(=O)CCCCCCCCCCCCCCC (some centres unmarked) | Amyloid-beta precursor protein, fibrillar amyloid-beta (APP, Homo sapiens, UniProt P05067) | TEM | – | 2.0 eq, 5 h, fibril 7, added: APP 20 µM | – | fibril diameter | 51.9 nm |
| Cc1ccc(NC(=O)NC(C)(C)c2cccc(NC3=CC(=O)N(C4CCC(=O)NC4=O)C3=O)c2)cc1Cl (centres unmarked) | CDK-activating kinase assembly factor MAT1 (Homo sapiens, UniProt P51948) | degrader, quantitative proteomics, refers to: protein abundance | Jurkat | 1 µM, 4 h | relative to: DMSO | log2 fold change | -0.54 |
| CC1C(=O)N(S(=O)(=O)c2ccccc2)C1c1ccccc1 (centres unmarked) | glpG | substrate cleavage, inhibitor | NR698 | – | – | IC50 | inactive |
| CSCC[C@@H]1NC(=O)[C@@H]2CCCN2C(=O)[C@H](C(C)C)NC(=O)[C@@H](NC(=S)Nc2ccc(CC3CN(CC(=O)O)CCN(CC(=O)O)CCN3CC(=O)O)cc2)CSSC[C@@H](C(=O)O)NC(=O)[C@H](C)NC(=O)[C@H](CCCNC(=N)N)NC(=O)[C@H](Cc2ccc(O)cc2)NC(=O)[C@H]([C@@H](C)O)NC1=O (some centres unmarked) | Lymphocyte activation gene 3 protein (Lag3, Mus musculus, UniProt Q61790) | binding, SPR | immobilised recombinant mouse LAG-3 | – | – | kon | 231 M⁻¹ s⁻¹ |
| CCCCCC=CC=C1C(=O)C=CC1CC=CCCCC(=O)O (centres unmarked) | Heterogeneous nuclear ribonucleoprotein F (Homo sapiens, UniProt P52597) | competitive isoTOP-ABPP, refers to: HNRPF cysteine peptide | Ramos soluble proteome | 100 µM, added: iodoacetamide probe | relative to: DMSO over compound-treated, higher = stronger cysteine blockade | isoTOP-ABPP competition ratio | 2.4 |
| CSc1nc2ccccc2cc1C=NOCc1ccc2nc(-c3ccccc3)c(Nc3ccc(C(=O)O)cc3)n2c1 (mixture of isomers) | TDP1 | enzyme activity, inhibitor | – | 100 µM, unpurified compound | – | inhibition | 14.5% |
| CC(=O)N[C@@H](Cc1c[nH]c2ccccc12)C(=O)N[C@@H](CCCCN)C(=O)N[C@@H](CCC(=O)O)C(=O)N[C@@H](CC(=O)O)C(=O)COC(=O)c1c(C)cccc1C | CASP6 | enzyme activity, inhibitor | – | – | – | kinact/KI | 1900 M⁻¹ s⁻¹ |
| N=C(N)NCCC[C@@H]1NC(=O)[C@H](Cc2ccccc2)NC(=O)CSC[C@@H](C(=O)N[C@@H](CC(=O)O)C(N)=O)NC(=O)[C@H](CCCNC(=N)N)NC(=O)[C@H](Cc2c[nH]c3ccccc23)NC(=O)[C@H](Cc2ccc(O)cc2)NC(=O)[C@H](Cc2ccc(O)cc2)NC(=O)[C@H](Cc2ccccc2)NC1=O | Bromodomain-containing protein 4, BD1 (BRD4, Homo sapiens, UniProt O60885) | thermal stability, DSF | – | 100 µM | – | ΔTm | -0.56 °C |
| O=C(Cc1ccc(OCc2ccccc2)cc1)NC1(C(=O)O)CCN(C(=O)c2ccc(-c3cccc(Cl)c3)cc2)CC1 | Mitogen-activated protein kinase kinase kinase 21 (MAP3K21, Homo sapiens, UniProt Q5TCX8) | enzyme activity, inhibitor | – | 10 µM | – | activity vs control | 97% |
| CCCCCCCO[C@H]1O[C@H](CO)[C@@H](O)[C@H](O)[C@@H]1O | Type 1 fimbrin D-mannose specific adhesin, lectin domain (fimH, Escherichia coli K-12, UniProt P08191) | isothermal titration calorimetry | – | concentration not given, 37 °C | – | binding stoichiometry | 0.96 ± 0.01 |
| O=C(O)c1ccc(Nc2c(-c3ccc(CON=Cc4ccc(COc5c(F)c(F)cc(F)c5F)o4)cc3)nc3cc(-c4ccccc4)ccn23)cc1 (mixture of isomers) | TDP1 | enzyme activity, inhibitor | – | 100 µM, unpurified compound | – | inhibition | 36.9% |
| CC(=O)N[C@@H](CC(=O)O)C(=O)N[C@@H](CCC(=O)O)C(=O)N[C@H](C(=O)N[C@@H](CC(=O)O)C(=O)COC(=O)c1c(C)cccc1C)[C@@H](C)OCc1ccccc1 | CASP6 | enzyme activity, inhibitor | – | – | – | kinact/KI | 206000 M⁻¹ s⁻¹ |
| COc1ccc(C2=Nn3c(nnc3C3CCCCC3)SC2)cc1OC | Uncharacterized protein | inhibitor, coupled colorimetric | Trypanosoma brucei | – | – | Hill slope | 0.59 |
| O=C(O)c1ccc(Nc2c(-c3ccccc3)nc3ccc(CON=Cc4c(Cl)c5cc(Cl)ccc5oc4=O)cn23)cc1 | TDP1 | enzyme activity, inhibitor | – | 100 µM, unpurified compound | – | inhibition | 12.7% |
